Measurements of several laboratories.
± gives the spread as reported.
Urease: Urease (Canavalia ensiformis, UniProt P07374)
UniProt P07374, sequence (whole entry, looked up): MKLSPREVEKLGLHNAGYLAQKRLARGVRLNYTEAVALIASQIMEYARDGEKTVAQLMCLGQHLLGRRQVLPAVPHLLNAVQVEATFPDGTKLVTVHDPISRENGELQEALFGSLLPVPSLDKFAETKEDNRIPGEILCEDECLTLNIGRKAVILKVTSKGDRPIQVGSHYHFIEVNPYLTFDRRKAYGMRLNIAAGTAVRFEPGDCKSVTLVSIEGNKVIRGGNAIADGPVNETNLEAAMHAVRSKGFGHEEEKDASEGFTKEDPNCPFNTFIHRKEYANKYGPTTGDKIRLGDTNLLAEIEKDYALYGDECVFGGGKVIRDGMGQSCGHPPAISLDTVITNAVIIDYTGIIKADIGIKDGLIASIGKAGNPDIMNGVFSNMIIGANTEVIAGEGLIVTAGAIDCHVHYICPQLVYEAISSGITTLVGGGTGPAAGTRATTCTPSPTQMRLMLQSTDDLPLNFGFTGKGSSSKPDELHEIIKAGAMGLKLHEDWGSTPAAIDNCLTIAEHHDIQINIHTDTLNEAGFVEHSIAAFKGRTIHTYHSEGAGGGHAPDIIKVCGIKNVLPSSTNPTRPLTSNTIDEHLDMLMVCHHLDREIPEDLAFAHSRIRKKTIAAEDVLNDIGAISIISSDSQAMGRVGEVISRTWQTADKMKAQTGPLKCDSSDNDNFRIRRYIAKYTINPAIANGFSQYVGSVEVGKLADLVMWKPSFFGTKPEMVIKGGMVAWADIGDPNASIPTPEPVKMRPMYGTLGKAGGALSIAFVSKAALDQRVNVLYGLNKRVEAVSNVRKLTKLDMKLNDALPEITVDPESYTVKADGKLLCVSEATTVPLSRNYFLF
murE: UDP-N-acetylmuramoyl-L-alanyl-D-glutamate--2,6-diaminopimelate ligase (murE, Mycobacterium tuberculosis, UniProt P9WJL3)
UniProt P9WJL3, sequence (whole entry, looked up): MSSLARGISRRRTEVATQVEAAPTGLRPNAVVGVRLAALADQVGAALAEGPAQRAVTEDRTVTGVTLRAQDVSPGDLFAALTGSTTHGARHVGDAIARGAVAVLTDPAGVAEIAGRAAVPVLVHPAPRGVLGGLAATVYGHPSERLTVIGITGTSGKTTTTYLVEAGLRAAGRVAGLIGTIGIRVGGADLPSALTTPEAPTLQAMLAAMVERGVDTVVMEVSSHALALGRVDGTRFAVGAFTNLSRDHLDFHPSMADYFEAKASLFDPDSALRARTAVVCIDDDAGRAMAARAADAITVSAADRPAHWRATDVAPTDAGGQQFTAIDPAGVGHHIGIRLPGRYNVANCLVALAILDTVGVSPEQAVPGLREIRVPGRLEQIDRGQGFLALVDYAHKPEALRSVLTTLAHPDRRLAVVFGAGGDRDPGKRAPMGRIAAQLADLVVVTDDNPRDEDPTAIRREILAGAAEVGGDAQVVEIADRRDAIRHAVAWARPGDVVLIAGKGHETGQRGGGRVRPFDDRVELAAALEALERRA
Genome polyprotein protease: Genome polyprotein, protease (Enterovirus A71, UniProt Q66478)
UniProt Q66478, sequence (whole entry, looked up): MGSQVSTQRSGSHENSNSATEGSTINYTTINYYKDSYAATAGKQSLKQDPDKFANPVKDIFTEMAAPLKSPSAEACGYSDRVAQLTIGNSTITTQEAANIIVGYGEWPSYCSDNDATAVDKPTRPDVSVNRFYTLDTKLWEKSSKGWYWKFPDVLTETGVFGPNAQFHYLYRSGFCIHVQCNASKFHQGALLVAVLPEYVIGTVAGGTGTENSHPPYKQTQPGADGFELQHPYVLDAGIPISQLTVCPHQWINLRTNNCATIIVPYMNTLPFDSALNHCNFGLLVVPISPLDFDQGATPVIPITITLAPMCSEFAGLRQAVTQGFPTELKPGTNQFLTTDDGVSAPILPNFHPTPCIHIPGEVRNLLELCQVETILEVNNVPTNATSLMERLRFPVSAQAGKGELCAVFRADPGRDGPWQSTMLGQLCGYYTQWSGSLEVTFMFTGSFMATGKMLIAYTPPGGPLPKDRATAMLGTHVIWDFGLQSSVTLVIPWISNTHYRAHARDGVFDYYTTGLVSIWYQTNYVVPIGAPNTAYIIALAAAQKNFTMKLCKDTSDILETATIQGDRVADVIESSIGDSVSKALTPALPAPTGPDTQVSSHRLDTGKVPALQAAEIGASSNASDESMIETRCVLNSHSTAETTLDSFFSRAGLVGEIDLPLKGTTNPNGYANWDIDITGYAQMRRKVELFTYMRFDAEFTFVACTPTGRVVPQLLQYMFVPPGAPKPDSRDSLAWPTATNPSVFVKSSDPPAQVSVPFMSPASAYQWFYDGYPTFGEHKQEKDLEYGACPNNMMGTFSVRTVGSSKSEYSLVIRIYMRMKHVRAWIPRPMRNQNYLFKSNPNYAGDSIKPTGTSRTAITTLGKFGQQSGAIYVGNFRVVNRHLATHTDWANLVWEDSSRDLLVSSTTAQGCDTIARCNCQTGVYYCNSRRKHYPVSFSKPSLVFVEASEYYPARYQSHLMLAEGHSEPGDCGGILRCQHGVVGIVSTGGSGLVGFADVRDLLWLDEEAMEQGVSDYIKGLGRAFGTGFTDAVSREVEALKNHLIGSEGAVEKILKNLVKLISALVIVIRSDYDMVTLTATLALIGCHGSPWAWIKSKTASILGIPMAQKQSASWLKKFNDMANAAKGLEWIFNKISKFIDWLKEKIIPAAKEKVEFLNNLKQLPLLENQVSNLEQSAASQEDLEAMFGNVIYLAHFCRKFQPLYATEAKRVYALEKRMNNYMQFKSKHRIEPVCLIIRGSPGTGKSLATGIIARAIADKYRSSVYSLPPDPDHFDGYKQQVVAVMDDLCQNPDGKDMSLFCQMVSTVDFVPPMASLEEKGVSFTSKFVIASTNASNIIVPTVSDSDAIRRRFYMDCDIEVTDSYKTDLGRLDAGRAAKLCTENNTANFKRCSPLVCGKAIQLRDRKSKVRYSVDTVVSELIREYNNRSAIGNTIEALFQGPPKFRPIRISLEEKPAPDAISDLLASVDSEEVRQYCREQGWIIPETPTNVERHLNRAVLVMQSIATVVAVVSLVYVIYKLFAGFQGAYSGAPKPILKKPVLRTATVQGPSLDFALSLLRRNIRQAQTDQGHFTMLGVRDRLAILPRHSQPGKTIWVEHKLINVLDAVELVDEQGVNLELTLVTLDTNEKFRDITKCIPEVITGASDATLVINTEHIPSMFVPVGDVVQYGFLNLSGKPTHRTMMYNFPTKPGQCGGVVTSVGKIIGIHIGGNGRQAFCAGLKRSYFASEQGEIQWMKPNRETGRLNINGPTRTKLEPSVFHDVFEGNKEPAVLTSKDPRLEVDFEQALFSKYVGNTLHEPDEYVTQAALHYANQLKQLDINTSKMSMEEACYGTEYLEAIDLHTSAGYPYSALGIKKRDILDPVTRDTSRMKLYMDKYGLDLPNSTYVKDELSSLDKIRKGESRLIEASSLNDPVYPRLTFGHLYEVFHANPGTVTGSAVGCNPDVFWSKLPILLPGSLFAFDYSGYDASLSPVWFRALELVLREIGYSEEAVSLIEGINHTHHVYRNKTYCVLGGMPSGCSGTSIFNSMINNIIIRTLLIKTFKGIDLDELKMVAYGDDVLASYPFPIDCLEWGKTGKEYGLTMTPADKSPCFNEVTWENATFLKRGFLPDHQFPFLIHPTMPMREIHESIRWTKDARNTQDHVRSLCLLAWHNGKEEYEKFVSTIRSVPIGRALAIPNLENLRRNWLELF
NA: Neuraminidase (NA, Influenza A virus, UniProt P03468)
UniProt P03468, sequence (whole entry, looked up): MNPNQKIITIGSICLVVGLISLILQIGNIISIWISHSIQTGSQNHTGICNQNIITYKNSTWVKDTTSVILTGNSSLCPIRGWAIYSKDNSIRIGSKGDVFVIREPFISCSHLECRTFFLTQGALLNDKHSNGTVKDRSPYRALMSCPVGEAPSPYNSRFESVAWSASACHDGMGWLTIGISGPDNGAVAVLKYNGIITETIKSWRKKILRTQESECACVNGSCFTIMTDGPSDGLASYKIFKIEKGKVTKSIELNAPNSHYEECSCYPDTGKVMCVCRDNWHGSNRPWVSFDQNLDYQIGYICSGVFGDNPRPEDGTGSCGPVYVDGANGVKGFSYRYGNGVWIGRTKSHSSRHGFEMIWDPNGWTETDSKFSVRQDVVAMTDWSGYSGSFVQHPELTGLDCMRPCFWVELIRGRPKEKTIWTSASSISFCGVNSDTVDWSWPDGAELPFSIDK
CYP2B6: Cytochrome P450 2B6 (CYP2B6, Homo sapiens, UniProt P20813)
UniProt P20813, sequence (whole entry, looked up): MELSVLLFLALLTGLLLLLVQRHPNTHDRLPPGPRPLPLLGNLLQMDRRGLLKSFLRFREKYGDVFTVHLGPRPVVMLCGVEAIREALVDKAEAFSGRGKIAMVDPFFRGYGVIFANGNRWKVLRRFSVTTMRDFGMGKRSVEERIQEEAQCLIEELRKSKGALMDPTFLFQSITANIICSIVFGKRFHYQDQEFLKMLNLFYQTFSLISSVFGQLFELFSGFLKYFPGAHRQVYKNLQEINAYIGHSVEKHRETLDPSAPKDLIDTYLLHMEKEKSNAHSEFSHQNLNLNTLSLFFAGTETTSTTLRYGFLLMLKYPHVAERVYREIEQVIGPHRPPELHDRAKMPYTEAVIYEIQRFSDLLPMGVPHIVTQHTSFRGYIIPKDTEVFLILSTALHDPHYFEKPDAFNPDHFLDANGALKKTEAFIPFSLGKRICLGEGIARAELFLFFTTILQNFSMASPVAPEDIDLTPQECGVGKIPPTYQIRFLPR
UniProt P47870, sequence (whole entry, unmodified, looked up): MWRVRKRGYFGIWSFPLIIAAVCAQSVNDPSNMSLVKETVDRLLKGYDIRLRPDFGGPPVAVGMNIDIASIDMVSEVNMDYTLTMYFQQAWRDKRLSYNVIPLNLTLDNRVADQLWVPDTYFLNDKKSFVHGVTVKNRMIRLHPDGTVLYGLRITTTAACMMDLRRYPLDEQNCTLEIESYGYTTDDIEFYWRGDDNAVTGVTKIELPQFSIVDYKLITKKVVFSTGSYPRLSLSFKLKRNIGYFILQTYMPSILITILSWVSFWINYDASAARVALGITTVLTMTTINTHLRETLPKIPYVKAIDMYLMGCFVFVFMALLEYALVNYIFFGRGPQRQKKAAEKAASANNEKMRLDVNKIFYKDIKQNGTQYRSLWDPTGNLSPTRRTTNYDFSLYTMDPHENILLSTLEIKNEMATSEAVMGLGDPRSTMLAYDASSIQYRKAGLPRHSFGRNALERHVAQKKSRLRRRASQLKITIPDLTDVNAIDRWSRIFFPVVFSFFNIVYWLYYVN

The IC50 of Cc1sc2c(c1C)C(c1ccc(Cl)cc1)=N[C@@H](CC(=O)OC(C)(C)C)c1nnc(C)n1-2 is reported as greater than 10 µM (CREB-binding protein (CREBBP, Homo sapiens, UniProt Q92793); inhibitor, biochemical).
O=C1Nc2ccccc2C12c1c([nH]c(=O)[nH]c1=O)Nc1[nH]c(=O)[nH]c(=O)c12 has an IC50 of 14.5 µM (Urease; enzyme activity, inhibitor, absorbance).
For CCCCCc1cc(O)c2c(c1)OC(C)(C)C1=C2[C@@H](O)[C@@](C)(O)CC1, the IC50 was 310 µM (rat intestinal α-glucosidase; enzyme activity, inhibitor).
For CCCCCCCC/C=C\CCCCc1cc(=O)c2ccccc2n1C, the IC50 was 36 µM (murE; enzyme activity, inhibitor, absorbance).
The IC50 of CC1=CC(C=C(Cl)c2ccc(C(=O)O)cc2)C2(C(=O)O)C=CC(CCOC(=O)c3ccc(Oc4ccccc4)cc3)CC2C1 (stereo not drawn) is reported as 6 µM (ATP-dependent Clp protease ATP-binding subunit ClpC1 (clpC1, Mycobacterium tuberculosis, UniProt P9WPC9); enzyme activity, inhibitor).
C=CCC(NC(=O)C1CN(C(=O)C(CC(=C)C)NC(=O)C=C)CC1c1cccc(C(F)(F)F)c1)C(=O)NC (stereo not drawn) gave an IC50 of greater than 100 µM (Replicase polyprotein 1ab, main protease (rep, Human coronavirus NL63, UniProt P0C6X5); enzyme activity, inhibitor).
The IC50 of CCCn1c(NCc2ccc(N3N=C(c4ccccc4)CC3c3ccccc3)cc2)nc2ccccc21 (stereo not drawn) is reported as 8.5 µM (Genome polyprotein protease; enzyme activity, inhibitor).
For CCCCCc1cc(O)c2c(c1)OC(C)(C)C1CCC(C)=CC21 (single isomer, unassigned; (-)), the IC50 was 11 µM (UDP-glucuronosyltransferase 2B4 (UGT2B4, Homo sapiens, UniProt P06133); enzyme activity, inhibitor; HEK293; pH 7.4).
The IC50 of CC(C)C[C@H](N)C(=O)NCC(=O)N[C@H](C(=O)N[C@@H](C)C(=O)N1CCC[C@H]1C(=O)N[C@H](C(=O)N[C@@H](CCCCN)C(=O)N[C@@H](C)C(=O)N[C@@H](CCCCN)C(=O)N[C@@H](CCCNC(=N)N)C(=O)N[C@@H](CCCNC(=N)N)C(=O)N[C@H](C(=O)N[C@H](C(=O)N[C@@H](CCC(N)=O)C(=O)N[C@@H](CCCNC(=N)N)C(=O)N[C@@H](CCC(=O)O)C(=O)N[C@@H](CCCCN)C(=O)N[C@@H](CCCNC(=N)N)C(N)=O)C(C)C)C(C)C)[C@@H](C)O)C(C)C is reported as 1.6 µM (Furin (FURIN, Homo sapiens, UniProt P09958); enzyme activity, inhibitor, fluorescence; pH 7).
C=CC(=O)NC(CC(=C)C)C(=O)N1CC(C(=O)NC(CCSC)C(=O)NC)C(c2cccc(C(F)(F)F)c2)C1 (stereo not drawn) gave an IC50 of greater than 100 µM (Replicase polyprotein 1ab, main protease (rep, Human coronavirus NL63, UniProt P0C6X5); enzyme activity, inhibitor).
With COc1cc(/C=C/C(=O)CC(=O)/C=C/c2ccc(O)c(O)c2)ccc1O the IC50 was 62.8 µM (NA; enzyme activity, inhibitor).
The IC50 of N=C(N)Nc1ccc2[nH]c3c(c2c1)C[C@@]1(O)[C@H]2Cc4ccc(O)c5c4[C@@]1(CCN2CC1CC1)[C@H]3O5 is reported as 1.83 µM (Carbamate kinase (Giardia intestinalis, UniProt A8BB85); enzyme activity, ATP luminescence).
For CN1C(=O)C2(C3=C(Nc4[nH]c(=O)[nH]c(=O)c42)c2ccccc2C3=O)c2ccccc21 (stereo not drawn), the IC50 was 4.35 µM (Urease; enzyme activity, inhibitor, absorbance).
For O=C(NC1CCN(c2ncnc3[nH]cnc23)CC1)c1cccc(NS(=O)(=O)c2ccc(C(F)(F)F)cc2)c1, the IC50 was 9.11 µM (Replicase polyprotein 1ab, nsp14 (rep, Human coronavirus 229E, UniProt P0C6X1)).
N#Cc1cn([C@@H]2O[C@H](CSCC[C@H](N)C(=O)O)[C@@H](O)[C@H]2O)c2ncnc(N)c12 gave an IC50 of 1.1 ± 0.2 µM (Replicase polyprotein 1ab, nsp10-nsp16 complex (rep, Human coronavirus 229E, UniProt P0C6X1)).
CCCCCc1cc(O)c2c(c1)OC(C)(C)C1CCC(CO)=CC21 (stereo not drawn) gave an IC50 of 0.55 ± 0.26 µM (CYP2B6; enzyme activity, inhibitor; microsomes from HEK293 cells; pH 7.4, unbound, fu,inc corrected, added: bupropion).
CCC[C@H](C(=O)c1ccccc1)N1CCCC1 has an IC50 of 2.5 µM (Sodium-dependent dopamine transporter (SLC6A3, Homo sapiens, UniProt Q01959); transporter uptake, inhibitor, radiometric).
CCCCCc1cc(O)cc2c1Oc1cc(O)cc(C(=O)CCCC)c1C(=O)O2 has an IC50 of 64.8 µM (Endonuclease 8 2 (nei2, Mycobacterium tuberculosis, UniProt P9WNC1); AP site cleavage, inhibitor; added: THF-containing DNA substrate).
The IC50 of C=C(C)C1C2OC(=O)C1C1(O)CC3OC34C(=O)OC2C14C (stereo not drawn) is reported as 3.55 µM (GABA-A receptor; alpha-1/beta-2/gamma-2 (Homo sapiens, UniProt P14867+P18507+P47870, V284A); ion current, antagonist, two-electrode voltage clamp; oocytes).
With C=CC(=O)NC(CC(=C)C)C(=O)N1CC(C(=O)NC(C(=O)NC)C(C)CC)C(c2cccc(C(F)(F)F)c2)C1 (stereo not drawn) the IC50 was greater than 100 µM (Replicase polyprotein 1ab, main protease (rep, Human coronavirus 229E, UniProt P0C6X1); enzyme activity, inhibitor).
With O=c1[nH]c2cc(Cl)cc(Cl)c2c(O)c1Sc1nnnn1-c1ccc(O)cc1 the IC50 was greater than 50 µM (Genome polyprotein protease; enzyme activity, inhibitor).
The IC50 of CCCCCCCCC/C=C\CCCc1cc(=O)c2ccccc2n1C is reported as 159 µM (murE; enzyme activity, inhibitor, HPLC).
O=C(/C=C/c1ccc(O)cc1)OC[C@@]1(O)CO[C@@H](O[C@H]2[C@H](Oc3ccc(/C=C/C(=O)c4ccc(O)cc4O)cc3)O[C@H](CO)[C@@H](O)[C@@H]2O)[C@@H]1O has an IC50 of 0.04 µM (NA; enzyme activity, inhibitor).
For CCCCCc1cc(O)c2c(c1)OC(C)(C)C1CCC(C)=CC21 (single isomer, unassigned; (-)), the IC50 was 18 ± 5 µM (CYP2B6; inhibitor; HEK cell microsomes; 30 min preincubation with NADPH).
The IC50 of C=CC(=O)NC(CC(=C)C)C(=O)N1CC(C(=O)NC(Cc2ccccc2)C(=O)NC)C(c2cccc(C(F)(F)F)c2)C1 (stereo not drawn) is reported as 1.8 µM (Replicase polyprotein 1ab, main protease (rep, Human coronavirus 229E, UniProt P0C6X1); enzyme activity, inhibitor).
With COc1ccc2c(c1)CCC1C2=NN(C(C)=O)C1c1cccc(I)c1 (stereo not drawn) the IC50 was 10.6 µM (Genome polyprotein protease; enzyme activity, inhibitor).
The IC50 of C=CC(=O)N1CCN(c2cc(-c3ccc(C4CCC4)cc3)ncc2C(=O)N[C@H](Cc2ccccc2)C(=O)NC)C(C)C1 (stereo partly drawn) is reported as greater than 100 µM (Replicase polyprotein 1ab, main protease (rep, Human coronavirus 229E, UniProt P0C6X1); enzyme activity, inhibitor).
With COc1cc(CN2CCN(C)CC2)ccc1Nc1ncc2c(n1)N(C13CC4CC(CC(C4)C1)C3)C(=O)N(c1c(C)cccc1C)C2 the IC50 was greater than 0.5 µM (Serine/threonine-protein kinase SIK2 (SIK2, Homo sapiens, UniProt Q9H0K1); enzyme activity, inhibitor).
COc1ccccc1/N=C/c1nc(-c2ccccc2)oc1OC(C)=O gave an IC50 of greater than 50 µM (Genome polyprotein protease; enzyme activity, inhibitor).
For C=CC(=O)NC(CC(=C)C)C(=O)N1CC(C(=O)NC(Cc2ccco2)C(=O)NC)C(c2cccc(C(F)(F)F)c2)C1 (stereo not drawn), the IC50 was greater than 100 µM (Replicase polyprotein 1ab, main protease (rep, Human coronavirus NL63, UniProt P0C6X5); enzyme activity, inhibitor).

Some of these lines once more:
The IC50 of C=C(C)C1C2OC(=O)C1C1(O)CC3OC34C(=O)OC2C14C (stereo not drawn) is reported as 3.55 µM (GABA-A receptor; alpha-1/beta-2/gamma-2 (Homo sapiens, UniProt P14867+P18507+P47870, V284A); ion current, antagonist, two-electrode voltage clamp; oocytes).
N#Cc1cn([C@@H]2O[C@H](CSCC[C@H](N)C(=O)O)[C@@H](O)[C@H]2O)c2ncnc(N)c12 gave an IC50 of 1.1 ± 0.2 µM (Replicase polyprotein 1ab, nsp10-nsp16 complex (rep, Human coronavirus 229E, UniProt P0C6X1)).
For O=C(NC1CCN(c2ncnc3[nH]cnc23)CC1)c1cccc(NS(=O)(=O)c2ccc(C(F)(F)F)cc2)c1, the IC50 was 9.11 µM (Replicase polyprotein 1ab, nsp14 (rep, Human coronavirus 229E, UniProt P0C6X1)).
With COc1ccc2c(c1)CCC1C2=NN(C(C)=O)C1c1cccc(I)c1 (stereo not drawn) the IC50 was 10.6 µM (Genome polyprotein protease; enzyme activity, inhibitor).
The IC50 of CCCn1c(NCc2ccc(N3N=C(c4ccccc4)CC3c3ccccc3)cc2)nc2ccccc21 (stereo not drawn) is reported as 8.5 µM (Genome polyprotein protease; enzyme activity, inhibitor).
